Results gathered from unrelated publications.
Lines come from different studies, so protocols differ. Several values in a cell are separate wells, animals, samples, runs or records. Numbers after ± are the reported error.

Compound	assay	system	conditions	half-life
O=C(C[18F])NCCCCCC(=O)Nc1ccccc1		rhesus macaque, blood plasma	intravenous, 6.07 mCi, fast phase, first 2.5 min	0.00694 h
C[C@H](NC(=O)CNC(=O)[C@H](Cc1c[nH]c2ccccc12)NC(=O)CNC(=O)[C@H](C)NC(=O)[C@H](CO)NC(=O)[C@H](CCCNC(=N)N)NC(=O)[C@H](CO)NC(=O)[C@H](CO)NC(=O)CN)C(=O)N[C@@H](CO)C(=O)N[C@@H](CCCNC(=N)N)C(=O)N[C@@H](CO)C(=O)N[C@@H](CO)C(=O)NCC(N)=O	RP-HPLC and LC-MS	human serum	50% serum, 37 °C	< 0.5 h
CN(C)CCc1c[nH]c2ccccc12		human hepatocytes	3.1 µM, with: 100 nM clorgyline and deprenyl	1.54 h
Cc1ncc2n1-c1ccc(Cl)cc1C(c1ccccc1F)=NC2		healthy volunteers, plasma	oral, 8 mg, CYP3A probe, geometric mean, with: Echinacea purpurea for 28 days	3.1 h
CCCCCCCCCCCCCCCC(=O)NCCCC[C@H](NC(=O)[C@H](CCCCN)NC(=O)[C@H](CCCCN)NC(=O)[C@@H]1CCCN1C(=O)CNC(=O)[C@H](CC(C)C)NC(=O)[C@H](CC(C)C)NC(=O)[C@H](Cc1ccc(O)cc1)NC(=O)CNC(=O)[C@H](C)NC(=O)[C@H](CO)NC(=O)[C@H](CC(N)=O)NC(=O)[C@H](CC(C)C)NC(=O)[C@@H](NC(=O)[C@@H](N)Cc1c[nH]c2ccccc12)[C@@H](C)O)C(=O)N[C@@H](CCCCN)C(N)=O		25% rat serum	20 µM, pH 7.5, 37 °C	10 h
O=S(=O)([O-])[O-].[O]=[V+2]	measured: total vanadium	human, serum	oral, 50 mg V/day as VOSO4	118 h and 173 h and 71 h and 101 h
CC[C@H](C)[C@@H]1NC(=O)[C@@H]2CSSC[C@H](NC(=O)[C@H](Cc3ccccc3)NC(=O)[C@@H](NC(=O)[C@@H](CO)NC(=O)[C@@H](Cc3ccccc3)NC(=O)[C@@H](CC(C)C)NC(=O)[C@@H]3CCCN3C(=O)[C@@H](CC(C)C)NC(=O)[C@@H](Cc3ccccc3)NC(=O)[C@@H](CCC(=O)O)NC(=O)[C@@H](C)NC(=O)[C@@H](Cc3ccccc3)NC(=O)[C@H](N)C(C)C)CSSC[C@@H](C(=O)N[C@@H](CC(C)C)C(=O)N[C@@H](CC(N)=O)C(N)=O)NC1=O)C(=O)N[C@@H]([C@@H](C)O)C(=O)N[C@@H](CCCNC(=N)N)C(=O)N[C@@H](CCSC)C(=O)N[C@@H](CO)C(=O)N1CCC[C@H]1C(=O)N1CCC[C@H]1C(=O)N[C@@H](CCC(N)=O)C(=O)N2	RP-HPLC	human plasma, 20%	pH 7.4, 37 °C	≤ 120 h
O=c1[nH]c(Cc2ccccn2)nc2c1cnn2C1CCOCC1		healthy men, extensive metabolizers, plasma	oral, 25 mg single dose, tablet, geometric mean	1.23 h
O=c1ccc2ccccc2o1	metabolic stability	human cryopreserved hepatocytes		0.0833 to 0.333 h
N=C(N)NCCC[C@@H](NC(=O)[C@@H](N)Cc1ccccc1)C(=O)N[C@@H](Cc1ccccc1)C(=O)N[C@@H](CCCCN)C(N)=O		early Huntington's disease patients, plasma	subcutaneous, 25 mg, day 7	4.14 h
CC[C@H](C)[C@H](NC(=O)[C@H](CCCNC(=N)N)NC(=O)[C@H](CC(C)C)NC(=O)[C@@H](N)Cc1ccccc1)C(=O)N[C@@H](CCCNC(=N)N)C(=O)N1CCC[C@H]1C(=O)N[C@@H](CCCCN)C(=O)O		rat plasma	37 °C	0.7 h
CC12C(=O)C(C)(C(c3ccccc3)=C1c1ccccc1)C1(Br)C(=O)N(CCNCCN)C(=O)C21.O=C(O)C(F)(F)F.O=C(O)C(F)(F)F (stereo not drawn)	CO release, HPLC	TRIS-sucrose buffer	pH 7.4, 4 to 5 °C	32 h
Cc1ncc2n1-c1ccc(Cl)cc1C(c1ccccc1F)=NC2		healthy male, plasma	oral, 7.5 mg, alone, geometric mean, day 1	4.2 h
CC(C)C[C@H](NC(=O)[C@H](CCC(=O)O)NC(=O)[C@H](CCC(=O)O)NC(=O)[C@H](CC(=O)O)NC(=O)[C@H](CCC(=O)O)NC(=O)[C@H](CCC(=O)O)NC(=O)[C@H](CCC(=O)O)NC(=O)[C@@H](N)CC(=O)O)C(=O)O		human brain homogenate	1 µM, room temperature	> 2 h
C[N+]1=C(C=CC2=C(OC(=O)CCCc3ccc(N(CCCl)CCCl)cc3)C(=CC=C3N(CCCCCC(=O)O)c4ccccc4C3(C)C)CCC2)C(C)(C)c2ccccc21	ester linker cleavage	RPMI-1640 with 10% FBS	0.6 µM, pH 7.5, 37 °C, 2.5% DMSO	~6.7 h
COc1ccc(OC(=O)NC2CCCCC2)cc1-c1ccccc1		10 mM borate buffer	pH 9.0, 37 °C, chemical stability	1.3 ± 0.0667 h
CCCCCOc1ccc(-c2cc(-c3ccc(C(=O)N[C@H]4C[C@@H](O)[C@@H](O)NC(=O)[C@@H]5[C@@H](O)[C@@H](C)CN5C(=O)[C@H]([C@H](O)CC(N)=O)NC(=O)[C@H]([C@H](O)[C@@H](O)c5ccc(O)c(OS(=O)(=O)O)c5)NC(=O)[C@@H]5C[C@@H](O)CN5C(=O)[C@H]([C@@H](C)O)NC4=O)cc3)no2)cc1		young infants at least 1000 g, plasma	intravenous infusion, 7 mg/kg/day, day 4, mean, 1 h infusion, repeat dosing	11.4 h
C#CCn1c(C)c(C(=O)C(=O)NC(C)(C)C#C)c(C)c1C(=O)Nc1ccc(F)c(F)c1		mouse liver microsomes	1 µM, with: ritonavir 0.3 µM	< 0.0833 h

Some of these lines once more:
Compound	assay	system	conditions	half-life
CN(C)CCc1c[nH]c2ccccc12		human hepatocytes	3.1 µM, with: 100 nM clorgyline and deprenyl	1.54 h
Cc1ncc2n1-c1ccc(Cl)cc1C(c1ccccc1F)=NC2		healthy volunteers, plasma	oral, 8 mg, CYP3A probe, geometric mean, with: Echinacea purpurea for 28 days	3.1 h
CCCCCCCCCCCCCCCC(=O)NCCCC[C@H](NC(=O)[C@H](CCCCN)NC(=O)[C@H](CCCCN)NC(=O)[C@@H]1CCCN1C(=O)CNC(=O)[C@H](CC(C)C)NC(=O)[C@H](CC(C)C)NC(=O)[C@H](Cc1ccc(O)cc1)NC(=O)CNC(=O)[C@H](C)NC(=O)[C@H](CO)NC(=O)[C@H](CC(N)=O)NC(=O)[C@H](CC(C)C)NC(=O)[C@@H](NC(=O)[C@@H](N)Cc1c[nH]c2ccccc12)[C@@H](C)O)C(=O)N[C@@H](CCCCN)C(N)=O		25% rat serum	20 µM, pH 7.5, 37 °C	10 h
